Published values gathered from unrelated publications.
Compare with care: the assays were run in different laboratories. Several values in a cell are separate wells, animals, samples, runs or records.

Cc1nc(Nc2ccc(CC(=O)O)cc2)nc(Nc2ccc(F)c(C(F)(F)F)c2)c1C
brown adipose lipid droplet size (C57BL/6J mouse, high-fat diet MASH model; intraperitoneal, 0.3 mg/kg daily, 60% fat diet for 12 weeks, dosed final four weeks; relative to: untreated): decreased

CCCCC/C=C\C/C=C\C/C=C\Cc1ccccc1CCCC(=O)N[C@H](C)CO
paw withdrawal threshold (mechanical hypersensitivity, electronic von Frey; mouse, CFA inflammatory pain model, contralateral non-inflamed paw; ip, 10 mg/kg; relative to: vehicle): no effect

Cc1cn(-c2cc(NC(=O)c3ccc(C)c(Nc4nccc(-c5cccnc5)n4)c3)cc(C(F)(F)F)c2)cn1
ADAS-Cog score change (human patients; dose not given, 12 months vs baseline, within treated group; relative to: baseline, direction not given): 6.83

C[C@H]1O[C@@H](O[C@H]2CC[C@@]3(C)[C@@H](CC[C@]4(C)[C@@H]3C=C[C@]35OC[C@@]6(CCC(C)(C)C[C@H]63)[C@@H](O)C[C@]54C)[C@]2(C)CO)[C@H](O)[C@@H](O[C@@H]2O[C@H](CO)[C@@H](O)[C@H](O)[C@H]2O)[C@H]1O
γ-GT activity (Mus musculus, pair-fed, AAV8-TBG-Null vector, plasma; oral, high dose, 5 h): 28.5 U/L and 25.7 U/L and 22.7 U/L and 22.2 U/L and 22 U/L

C[C@]1(CO)Cc2ncn(-c3ccc(C#N)c(Cl)c3)c2C(=O)O1
urinary sodium excretion Ae(0-24h) (human; 80 mg single dose): 297 mmol

CN1CCN(S(=O)(=O)c2cc([N+](=O)[O-])ccc2N(CCOS(C)(=O)=O)CCOS(C)(=O)=O)CC1
event-free survival (NSG mice, sample BC PDX; intraperitoneal, 25 mg/kg weekly x3): 39.4 days

CCCCC1(CCCC)CN(c2ccccc2)c2cc(SC)c(OCC(=O)N[C@@H](C(=O)NCC(=O)O)c3ccccc3)cc2S(=O)(=O)C1
serum LDL-C (item: LDL cholesterol; human, serum; 10 mg once daily, day 7): 90 mg/dL

CC[C@H](C)[C@@H]1NC(=O)[C@@H]2CCCN2C(=O)[C@H](CC(C)C)NC(=O)[C@H](CC(C)C)NC(=O)CNC(=O)[C@@H](NC(=O)[C@@H](NC(=O)[C@H](CC(=O)O)NC(=O)CNC(=O)[C@@H](NC(=O)[C@H](C)NC(=O)CNC(=O)[C@H](CCCCN)NC(=O)[C@H](CC(C)C)NC(=O)[C@H](CC(C)C)NC(=O)[C@H](CCCCN)NC(=O)CNC(=O)[C@@H](NC(=O)[C@@H](N)CC(C)C)C(C)C)C(C)C)C(C)C)CSSC[C@@H](C(=O)O)NC1=O
log2 fold change (RNA-seq, item: Igtp mRNA; mouse traumatic brain injury, frontal cortex and hippocampus; dose not given; relative to: TBI plus compound vs TBI): -2.36

Repeated from above:
Cc1nc(Nc2ccc(CC(=O)O)cc2)nc(Nc2ccc(F)c(C(F)(F)F)c2)c1C
brown adipose lipid droplet size (C57BL/6J mouse, high-fat diet MASH model; intraperitoneal, 0.3 mg/kg daily, 60% fat diet for 12 weeks, dosed final four weeks; relative to: untreated): decreased
